Experimental data from different studies.
Compare with care: the assays were run in different laboratories. Values joined by “and” are separate records of one study, mostly repeats; a detail may differ. Numbers after ± are the reported error. In brackets after ≈: the same amount, converted by molar mass.

COc1ccc(C[C@H](NC(=O)[C@H](C)NC(=O)CN2CCOCC2)C(=O)N[C@@H](Cc2ccccc2)C(=O)C2(C)CO2)cc1 (stereo in doubt) — ring-stage parasites remaining (Plasmodium falciparum; 3D7; concentration not given, 48 h): 3 to 4%
N=C(N)c1ccc(OCc2ccc(-c3ccccc3)cc2COc2ccc(C(=N)N)cc2)cc1 — FICI (Escherichia coli; checkerboard; W3110; unit not given, added: rifampicin; lower = stronger synergy): ≤ 0.078
CCOc1ccc2cc(-c3nn(CC4CCN(C)CC4)c4ncnc(N)c34)ccc2c1 — parasite burden (Neospora caninum; qPCR; sheep foetuses or lambs, mid-pregnancy infection, foetal brain; concentration not given, treated infected group, negatives set to 0.01): 9.02 tachyzoites/mg tissue and 2.56 tachyzoites/mg tissue and 18.7 tachyzoites/mg tissue and 0.36 tachyzoites/mg tissue
c1ccc(CN(CCN(Cc2ccccn2)Cc2ccccn2)Cc2ccccn2)nc1 — MBEC (MRSA, MRSE, Enterococcus faecalis; biofilm eradication, Calgary biofilm device; all strains tested): > 2000 µM
CCOC(=O)c1c(C)nc(NCCCNc2ccnc3cc(Cl)ccc23)nc1-c1ccccc1 — EC50 (reovirus 1; viral replication; Vero): > 20 µM
CC(C)[C@@H]1NC(=O)[C@@H](CCCNC(=N)N)NC(=O)[C@H]([C@@H](C)O)NC(=O)[C@@H](CCCN)NC(=O)[C@H](Cc2ccccc2)NC(=O)[C@@H](Cc2ccccc2)NC1=O — IC50 (Acanthamoeba castellanii; trophozoites): 13.1 µg/mL (≈ 17.1 µM)
CN(C)[C@@H]1C(O)=C(C(N)=O)C(=O)[C@@]2(O)C(O)=C3C(=O)c4c(O)cccc4[C@@](C)(O)[C@H]3C[C@@H]12 — MBC (Acinetobacter calcoaceticus; 150): 8 µg/mL (≈ 18 µM)
CN[C@H](CC(C)C)C(=O)N[C@H]1C(=O)N[C@@H](CC(N)=O)C(=O)N[C@H]2C(=O)N[C@H]3C(=O)N[C@H](C(=O)N[C@H](C(=O)O)c4cc(O)cc(O)c4-c4cc3ccc4O)[C@H](O)c3ccc(c(Cl)c3)Oc3cc2cc(c3O[C@@H]2O[C@H](CO)[C@@H](O)[C@H](O)[C@H]2O[C@H]2C[C@](C)(N)[C@H](O)[C@H](C)O2)Oc2ccc(cc2Cl)[C@H]1O — MIC50 (Enterococcus faecalis; intermediate susceptibility; 0% serum, 10 isolates): 2 µg/mL (≈ 1.38 µM)
CC(=O)Oc1ccccc1C(=O)Nc1ncc([N+](=O)[O-])s1 — parasite number (Cryptosporidium parvum; HCT-8; EC90, 6 h; baseline: DMSO control): 99.9% and 103% and 85.8% and 62.6%
O=c1[nH]c2ncsc2c(=O)n1O — root length inhibition (Brassica rapa; 100 mg/mL, 72 h): 99%
O=C(O)c1ccc(-n2cc(CNc3cc(Br)cc(C(F)(F)F)c3)c(-c3ccc(F)c(F)c3)n2)cc1 — MBEC (Enterococcus faecalis; ATCC 29212; biofilm, Calgary device): 2 × MIC
COC(=O)[C@@H](CCSC)NCc1cc2ccccc2nc1SC — growth (Pseudomonas aeruginosa; 64 µg/mL, without pentamidine; baseline: control): 90.8%
Cc1nc2[nH]c(=O)n(OS(=O)(=O)c3ccccc3)c(=O)c2s1 — root length inhibition (Brassica rapa; 100 mg/mL, 72 h): 45%
Cc1cc(OC(C)C)ccc1C(=O)C(C)(C)NC(=O)c1sccc1C — EC50 (Alternaria solani; mycelial growth; PSA medium; 20 °C): 0.02 µg/mL
CC[C@H]1OC(=O)[C@H](C)[C@@H](O[C@H]2C[C@@](C)(OC)[C@@H](O)[C@H](C)O2)[C@H](C)[C@@H](O[C@@H]2O[C@H](C)C[C@H](N(C)C)[C@H]2O)[C@](C)(O)C[C@@H](C)/C(=N\OCOCCOC)[C@H](C)[C@@H](O)[C@]1(C)O — MIC50 (Enterococcus faecalis; agar dilution; vancomycin-intermediate; 20 isolates): > 128 µg/mL
COC[C@H]1O[C@@H]2O[C@H]3[C@H](OC)[C@@H](OC)[C@@H](O[C@H]4[C@H](OC)[C@@H](OC)[C@@H](O[C@H]5[C@H](OC)[C@@H](OC)[C@@H](O[C@H]6[C@H](OC)[C@@H](OC)[C@@H](O[C@H]7[C@H](OC)[C@@H](OC)[C@@H](O[C@H]8[C@H](OC)[C@@H](OC)[C@@H](O[C@H]1[C@H](OC)[C@H]2OC)O[C@@H]8COC)O[C@@H]7COC)O[C@@H]6COC)O[C@@H]5COC)O[C@@H]4COC)O[C@@H]3COC — bioluminescence (Escherichia coli; LuxR reporter, agonist; DH5α sensor strain; 200 µM): 742 ± 97 RLU
N=C(N)c1ccc(OCCC(CCOc2ccc(C(=N)N)cc2)c2ccccc2)cc1 (stereo not shown) — MIC of compound in combination (Escherichia coli; checkerboard; mcr-3 polymyxin-resistant; concentration not given, added: rifampicin): 12.5 µg/mL
O=c1[nH]c2scnc2c(=O)n1O — root length inhibition (Brassica rapa; 10 mg/mL, 72 h): 24%
CC(=O)NC[C@H]1CN(c2ccc(N3CCOCC3)c(F)c2)C(=O)O1 — MIC50 (Enterococcus faecalis; vancomycin-intermediate, 10 isolates; serum 50%): 4 µg/mL (≈ 11.9 µM)
Nc1nc(-c2ccccc2)nc2[nH]nc(Nc3ccc(C(F)(F)F)cc3)c12 — clinical score (coxsackievirus B3; 31-1-93, NMRI mice, CVB3 chronic myocarditis; oral, 100 mg/kg twice daily, day 8, dosed days 0 to 6, score scale 0 to 7; direction not given): 0.1
N=C(N)c1ccc(OCc2cc(Br)cc(COc3ccc(C(=N)N)cc3)c2)cc1 — FICI (Escherichia coli; checkerboard; ATCC 25922; unit not given, added: rifampicin; lower = stronger synergy): 0.078
O=c1[nH]c2nc(-c3ccncc3)sc2c(=O)n1O — root length inhibition (Brassica rapa; 10 mg/mL, 72 h): 1%
CC(C)[C@@H]1NC(=O)[C@@H](CCN)NC(=O)[C@H]([C@@H](C)O)NC(=O)[C@@H](CCCN)NC(=O)[C@H](Cc2ccccc2)NC(=O)[C@@H](Cc2ccccc2)NC1=O — IC90 (Acanthamoeba castellanii; trophozoites): > 16 µg/mL
CC(C)n1ncc2c(C(=O)NCC3(C)CNC3)cc(C3CC3)nc21 — plaque area (Enterovirus D68; viral replication; RD, recombinant wild-type US/MO/14-18947; 0.003 µM; baseline: untreated): 97.4% and 110%
Nc1nc2c(ncn2COCCO)c(=O)[nH]1 — EC50 (Epstein-Barr virus; viral replication, qPCR; mean): 6.74 µM
Cc1cc(=O)c2c(o1)C[C@H](O)C[C@H]2O — inhibition (Zika virus; viral replication, CCK-8; Vero C1008; 10 µM, 96 h): 28.3 ± 3.96%
CCOC(=O)c1c(C)nc(NCCNc2ccnc3cc(Cl)ccc23)nc1-c1ccccc1 — EC50 (reovirus 1; viral replication; Vero): > 4 µM
CC(C)[C@@H]1NC(=O)[C@@H](CCCCN)NC(=O)[C@H]([C@@H](C)O)NC(=O)[C@@H](CCCN)NC(=O)[C@H](Cc2ccccc2)NC(=O)[C@@H](Cc2ccccc2)NC1=O — IC90 (Acanthamoeba castellanii; trophozoites): > 16 µg/mL

A few entries again:
CCOC(=O)c1c(C)nc(NCCCNc2ccnc3cc(Cl)ccc23)nc1-c1ccccc1 — EC50 (reovirus 1; viral replication; Vero): > 20 µM
CC(C)[C@@H]1NC(=O)[C@@H](CCCNC(=N)N)NC(=O)[C@H]([C@@H](C)O)NC(=O)[C@@H](CCCN)NC(=O)[C@H](Cc2ccccc2)NC(=O)[C@@H](Cc2ccccc2)NC1=O — IC50 (Acanthamoeba castellanii; trophozoites): 13.1 µg/mL (≈ 17.1 µM)
